# Results from different studies.
# A part holds a random share of what one study measured. Substitutions count along the parent as printed.

# Sample 1
# Target: RING finger protein unkempt homolog, zinc fingers 1-6, GST-SBP tag (UNK, Homo sapiens, UniProt Q9C0B0, residues 30-357)
# Sequence of UniProt Q9C0B0 (30-357, looked up): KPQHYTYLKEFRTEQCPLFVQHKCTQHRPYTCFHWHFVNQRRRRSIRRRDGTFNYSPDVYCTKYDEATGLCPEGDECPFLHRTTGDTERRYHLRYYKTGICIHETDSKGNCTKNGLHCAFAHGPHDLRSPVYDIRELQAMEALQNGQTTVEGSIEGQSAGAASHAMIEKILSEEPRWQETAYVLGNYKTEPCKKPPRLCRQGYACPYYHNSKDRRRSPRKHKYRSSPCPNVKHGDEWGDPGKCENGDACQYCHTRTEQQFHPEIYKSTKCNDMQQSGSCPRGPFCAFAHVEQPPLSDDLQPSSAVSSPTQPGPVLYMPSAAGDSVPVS
# Technique: RNA Bind-n-Seq
# Form: RNA
# Matrix: in vitro
# Tested at: not given
# Setting: RNA with constant flanks, human and mouse sites, ends assumed
# Relative to: input RNA pool
# Direction: higher = stronger binding
# All sequences stand within: GGGAGUUCUACAGUCCGACGAUC … CAACAGAGGAUUGAGCAUCA
Oligonucleotide,bound/input enrichment
UUUGGAUCUCGCUUACAAGAAACCUUUUCGUUGGACCUUCUCAAAACUGCAUUUAUCAAUAGCUGCUACAUCAAAAGCGAAGAGGCGAAACGUCAGAGCCUUGGCAUAGAGAAAGAAGCU,0.766 ratio
UGUCCCGAGUACUGAAAUUGCAGCAGACACCUUCAUGCCUUGCCCAGGCUUCUAGUCUUUUCCUCCUUCUGGUAAUGACUACUUCUUUUUUUUUUUUUAUUUUCUGUUGCUUUUCUUUGA,2.93 ratio
CUGGUGGCUGAGGUCCGCAUCGGUGACAGGGACCCCAUGCCUCUACCUGUGCCCAGCCUGUUUCCCCGCCUCAGGGCCUGGAGGACAGGAAAGACAGUUUCUCCACAGUCCCAUGCAUCU,0.105 ratio
CUAUAAAGGCAGCGCCCCGGAGAGCUCUUGCGCGUCUUGUUCUUGCCUGGUGUCGGUGGUUAGUUUCUGCGACUUGUGUUGGGACUGCUGAUAGGAAGAUGUCUUCAGGAAAUGCUAAAA,0.384 ratio
UAUAAUGCCUUGGAAACAAACAUUAUUCCAUCGUUUGUGCUGAUGGACAUCCAGGCUUCUACUGUGGUCACUUACGUCUAUCAACUAAUUGGAGAUGACGUCAAAGUAGAACGAAUUGAG,0.125 ratio
CGGAAAUAAUGCAAAAGGUGUCCCAAGGCUCCUGACCAGUGAACAAAGAUUUGAGAAAGACAGCCAAGCUCAUGUUUUCUCCUGAUCAAGAAAAUCAUCCAUCUAAAGCACCAGUAAAAU,0.194 ratio
GAAGAUGGUGGUUGUACAUUAUUCAUCUAGAAAAUAUAAAAAUUCAUUUUGUUUUGAAGCUAGUUAUUAAACUGGAAUAGCAGUUAUAUCCCUGAGAAUGGGGCCCUUCUCUUGACAUUC,16.7 ratio
ACAGGUGGUCGUAAUGGUUAUGGUGCAAAACUUUGUAAUAUUUUCAGUACAAAGUUUACAGUAGAAACAGCUUGCAAAGAAUACAAACACAGUUUUAAGCAGACAUGGAUGAAUAAUAUG,0.258 ratio
GAACAUGUCGACAAGCUGAAAAUCCCCCCUGAAGAGAUGAAGGAAAUGGAGCAGAAGUUGAUUAGAGACUUCCAAGAGUACGUGGAGCCAGGAGAAGACUUCCCAGCCUCCCCUCAGCGA,0.248 ratio
AUCCCAGAGAACGCCAUAUUCGGUCCCUGUGUACUGAGCCAUACUUCCCUGUAUGACAGCAUAGCCUUCGUAGCCCUCAAGUCCACGGACAAGAGAACAGUACCUUACAUCUUCCGGGUA,0.272 ratio
UAGCCCAAUUCUGCCCCUCCAUCCCAAGGGGCAGAGAAAUUGUCUUUCUUUGCUGACUCCUACGAGGAAAAAAAAAAAAAAAAAAAAAACAAUUAAAGGGAAAGAUAAACGGAGACGGAG,0.877 ratio

# Sample 2
# Target: Prothrombin, mature alpha-thrombin (F2, Homo sapiens, UniProt P00734)
# Technique: aptamer microarray, sandwich
# Form: DNA with 2'F-ANA
# Matrix: in vitro
# Tested at: 200 nM
# Setting: whole 15-mer aptamer, many near background
# Added: Cy3 exosite-II aptamer, 400 nM
# Direction: higher = stronger binding
# Oligonucleotide: GGTTGGTGTGGTTGG
Modification,mean fluorescence intensity
2'F-ANA at 1 3 4 5 7 9 10 11,46.4 a.u.
2'F-ANA at 1 3 9 13 15,246 a.u.
2'F-ANA at 1 2 3 4 5 9 10 11 13 14,53.4 a.u.
2'F-ANA at 1 3 4 6 10 11,60.9 a.u.
2'F-ANA at 1 4 5 6 9 10 13,50 a.u.
2'F-ANA at 2 3 5 9 10 12 15,57.5 a.u.
2'F-ANA at 5 6 7 8 9 10 11 12 13 14 15,53.3 a.u.
2'F-ANA at 3 4 5 7 10 13 14,45 a.u.
2'F-ANA at 2 5 6 7 8 11 12 13 15,89 a.u.
2'F-ANA at 5 6 8 10 11 13 14,95.7 a.u.
2'F-ANA at 2 5 10 14,46.1 a.u.
2'F-ANA at 5 6 7 9,74.7 a.u.
2'F-ANA at 7 8 9 11 15,516 a.u.
2'F-ANA at 1 2 3 4 5 14,40.6 a.u.
2'F-ANA at 1 2 4 5 6 7 9 13,57.6 a.u.
2'F-ANA at 1 2 11 12 13 14 15,63.5 a.u.
2'F-ANA at 1 2 3 7 9 10 11 13 14,55.2 a.u.
2'F-ANA at 1 2 3 6 7 8 11 12 13,341 a.u.
2'F-ANA at 2 6 8 10 12,167 a.u.
2'F-ANA at 1 3 4 5 6 7 8 9 11 12 13,73.2 a.u.
2'F-ANA at 1 4 5 6 10 11 14 15,76.3 a.u.
2'F-ANA at 2 9 10 11 12 14,104 a.u.
2'F-ANA at 2 3 4 5 6 10 11 12 13 15,52.6 a.u.
2'F-ANA at 1 3 4 7 9 11 12 14 15,75.3 a.u.
2'F-ANA at 1 4 11 12 15,260 a.u.

# Sample 3
# Target: ATF2, bZIP domain (human)
# Technique: DHFR protein complementation
# Matrix: yeast
# Setting: single substitutions, most at no-binding floor
# Relative to: wild-type JUN-FOS pair
# Direction: higher = stronger binding
# Starting sequence: JUN, bZIP domain (human); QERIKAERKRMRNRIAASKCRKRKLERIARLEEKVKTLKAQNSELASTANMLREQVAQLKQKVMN; partner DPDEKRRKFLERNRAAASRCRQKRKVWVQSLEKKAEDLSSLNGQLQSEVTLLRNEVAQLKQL
Substitution,binding fitness
R53S,-1.41 natural log
K34G,-1.43 natural log
R30C,-1.4 natural log
E54K,-1.47 natural log
E33W,-1.31 natural log
T37K,-1.37 natural log
R30V,-1.35 natural log
I28Y,-1.36 natural log
M51V,-1.34 natural log
Q55G,-1.44 natural log
A49D,-1.5 natural log
Q41L,-1.49 natural log
A29W,-1.46 natural log
V35N,-1.42 natural log
A57T,-1.38 natural log
N42L,-1.49 natural log
A57W,-1.46 natural log
T37F,-1.61 natural log
K34T,-1.31 natural log
A46S,-1.42 natural log
R53I,-1.52 natural log
T37S,-1.19 natural log

# Sample 4
# Target: ABI1, truncated, D143A, DHFR fusion (Arabidopsis thaliana, UniProt P49597)
# Technique: DHFR PCA, dose-response
# Matrix: yeast
# Setting: Hill fit, mean, not affinity
# Added: (+)-ABA, dose series
# Direction: lower = more sensitive
# Starting sequence: PYL1, truncated, DHFR fusion (Arabidopsis thaliana, UniProt Q8VZS8); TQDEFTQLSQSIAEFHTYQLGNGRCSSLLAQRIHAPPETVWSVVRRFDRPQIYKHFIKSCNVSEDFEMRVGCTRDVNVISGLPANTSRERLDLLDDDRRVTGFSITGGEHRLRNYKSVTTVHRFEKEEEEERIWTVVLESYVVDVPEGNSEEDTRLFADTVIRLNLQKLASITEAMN
Substitution,ABA EC50 [µM]
R111V,473
G81S,150
G148Y,34
R98T,18.6
Q167W,19.1
A35T,34.6
V136G,648
R24D,66.4
T6I,5.65
P50A,213
K168Q,2.5
I133W,4.56
G108Q,504
D48Q,82.8
F124N,20

# Sample 5
# Target: Sal-like protein 4, full length isoform B (SALL4, Homo sapiens, UniProt Q9UJQ4-2, residues 1-616)
# Technique: universal PBM
# Form: double-stranded DNA, one strand shown
# Matrix: in vitro
# Tested at: not given
# Setting: 8-mer, flanks averaged, mean of replicates
# Direction: higher = stronger binding
# Residues (chain): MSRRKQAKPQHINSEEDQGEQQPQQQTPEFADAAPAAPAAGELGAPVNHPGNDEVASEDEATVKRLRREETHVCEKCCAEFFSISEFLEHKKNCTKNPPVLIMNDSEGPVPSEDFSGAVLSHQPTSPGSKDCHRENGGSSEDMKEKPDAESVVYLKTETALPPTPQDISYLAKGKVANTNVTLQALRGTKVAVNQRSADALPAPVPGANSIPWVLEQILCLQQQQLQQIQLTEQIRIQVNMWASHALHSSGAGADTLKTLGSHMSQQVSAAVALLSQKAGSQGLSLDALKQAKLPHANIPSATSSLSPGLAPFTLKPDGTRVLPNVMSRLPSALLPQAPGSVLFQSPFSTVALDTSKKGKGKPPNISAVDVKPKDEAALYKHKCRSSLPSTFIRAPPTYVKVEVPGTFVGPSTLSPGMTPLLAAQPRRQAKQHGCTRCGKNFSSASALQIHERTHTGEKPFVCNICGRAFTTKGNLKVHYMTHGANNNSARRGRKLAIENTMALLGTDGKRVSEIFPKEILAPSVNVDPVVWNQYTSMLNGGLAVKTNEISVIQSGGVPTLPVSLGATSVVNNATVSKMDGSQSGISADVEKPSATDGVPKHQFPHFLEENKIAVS
Oligonucleotide,E-score
AAAACTAC,0.128
CTACAAAC,0.0323
TGCCACCA,-0.161
CCGCGATA,0.00502
CTCATAGC,-0.0435
CCGTCGAG,-0.205
GCCACCCA,-0.299
GAAACTAA,0.0739
CACCTTGG,-0.258
CTCCGCCA,-0.288
ACCGTAGG,-0.224
GCAGGCAC,-0.289
ATTCTGCA,0.144
CTCAGACA,-0.0317
ACATCTGG,0.0729
ACCTCCAG,-0.0814
CGGGTCTC,-0.397
AGAACACC,-0.0709
GAAGGGTC,-0.229
ATTTTTTG,0.314
AAGCATGG,-0.0188
ACTAGCAT,-0.024

# Sample 6
# Target: CCND3, cyclin fold, Cln2 fusion (human)
# Technique: yeast growth competition, sequencing
# Matrix: yeast
# Setting: weak parent motif
# Relative to: not given
# Direction: higher = stronger binding
# Starting sequence: WEE1 docking peptide (human); HKTFRKLRLFDTP
Substitution,normalised enrichment score
F4E,0.0867
T12K,0.112
P13G,0.0812
K2I,0.0998
R8Y,0.257
L7A,0.0392
T12D,0.214
K2A,0.153
F4C,0.133
F4P,0.159
K6L,0.0655
R5V,0.0718
K2Q,0.146
T3K,0.0558
F4Y,0.142
L9I,0.0661
L7Q,0.212
D11H,-0.0771
R8M,0.131
K6Y,0.178
R5Y,0.121
F4N,0.074
H1K,0.124
K2V,0.121
T3G,0.169

# Single results of other studies
Molecule,target,test,test system,conditions,how to read,quantity,value
"PhoQ, residues 284 288 289 292 302 303 ASTSDA","PhoP, residues 12 14 15 18 19 SGWQI (Escherichia coli, UniProt P23836)","Sort-seq, item: YFP reporter",E. coli,"PhoQ-PhoP variant library, added: 10 µM Mg2+","relative to: high Mg2+ state, higher = stronger signaling",fold induction,1.47

# Excerpt of the above (sample 2):
Modification,mean fluorescence intensity
2'F-ANA at 1 3 4 5 7 9 10 11,46.4 a.u.
2'F-ANA at 1 3 9 13 15,246 a.u.
2'F-ANA at 1 2 3 4 5 9 10 11 13 14,53.4 a.u.
2'F-ANA at 1 3 4 6 10 11,60.9 a.u.
2'F-ANA at 1 4 5 6 9 10 13,50 a.u.
2'F-ANA at 2 3 5 9 10 12 15,57.5 a.u.
2'F-ANA at 5 6 7 8 9 10 11 12 13 14 15,53.3 a.u.
2'F-ANA at 3 4 5 7 10 13 14,45 a.u.
2'F-ANA at 2 5 6 7 8 11 12 13 15,89 a.u.
2'F-ANA at 5 6 8 10 11 13 14,95.7 a.u.
2'F-ANA at 2 5 10 14,46.1 a.u.
2'F-ANA at 5 6 7 9,74.7 a.u.
2'F-ANA at 7 8 9 11 15,516 a.u.
2'F-ANA at 1 2 3 4 5 14,40.6 a.u.
2'F-ANA at 1 2 4 5 6 7 9 13,57.6 a.u.
2'F-ANA at 1 2 11 12 13 14 15,63.5 a.u.
2'F-ANA at 1 2 3 7 9 10 11 13 14,55.2 a.u.
2'F-ANA at 1 2 3 6 7 8 11 12 13,341 a.u.
2'F-ANA at 2 6 8 10 12,167 a.u.
